Published values pooled from the literature.
Lines come from different studies, so protocols differ. pIC50: −log10 of the molar value.
Cell line: MDA-MB-435

| Compound | assay | setting | scale | endpoint | value |
| --- | --- | --- | --- | --- | --- |
| CN(C)CCN1CCN(c2ccc3nc(-c4ccc5nc(-c6ccc(C(F)(F)F)cc6)[nH]c5c4)[nH]c3c2)CC1 | SRB | 10 µM, 48 h |  | growth percent | 40.9% |
| CCOc1cncc(-c2ccc(NC(=O)C3(c4ccnc(NS(=O)(=O)C5CC5)n4)CCOCC3)nc2)n1 | cell growth or viability, ATP luminescence | 72 h |  | pIC50 | 6.62 |
| O=C1C=CC2(Oc3cccc4cccc(c34)O2)C2=C1C(O)CCC2O (centres unmarked) | cell growth or viability, resazurin | 72 h |  | pIC50 | 5.52 |
| Cc1ccc([N+](=O)[O-])cc1S(=O)(=O)N(C)/N=C/c1cnc2ccc(Br)cn12 | cell growth or viability |  |  | pIC50 | < 5.00 |
| CCN(C(=O)c1cc(F)ccc1Oc1nncnc1N1CCC2(C1)CN([C@H](CCCN(C)CCOC)C(C)C)C2)C(C)C | cell growth or viability | 7 days |  | GI50 | > 10 µM |
| O=C(Nc1nnc2c1c(-c1ccc(Cl)cc1)nc1sc(=Cc3ccco3)c(=O)n12)c1ccccc1 (mixture of isomers) | SRB | 10 µM, NCI60 single-dose screen | reference: untreated | cell growth | 56.4% |
| C1=[N+]2CCCC[N+]3=Cc4ccc5[n]4[Au-]23[n]2c1ccc2-c1nc2ccccc2nc1-5.F[P-](F)(F)(F)(F)F | NCI60 five-dose screen |  |  | TGI | 4 -log M |
| COC1CC(=O)C2C(O)C=CC(O)C2C12Oc1cccc3cccc(c13)O2 (centres unmarked) | cell growth or viability, resazurin | 72 h |  | pIC50 | 4.63 |

Repeated from above:
| Compound | assay | setting | scale | endpoint | value |
| --- | --- | --- | --- | --- | --- |
| O=C1C=CC2(Oc3cccc4cccc(c34)O2)C2=C1C(O)CCC2O (centres unmarked) | cell growth or viability, resazurin | 72 h |  | pIC50 | 5.52 |
